Assay results gathered from unrelated publications.
Protocols differ between the studies behind these lines. ± marks the error that the study gave.

SMILES | target or system | test | test system | conditions | scale | measurement | value
CCCCC/C=C\C/C=C\CCCCCCCCC(CCCCCCCC/C=C\C/C=C\CCCCC)OC(=O)CCCN(C)C | – | – | – | pH 5.5, formulated | – | zeta potential | 2.8 mV
Cn1nc2c(=O)n(C3CC3)ncc2c1[C@](O)(c1cnc(C(F)(F)F)c(Cl)c1)C(F)(F)F | – | – | rat Sprague-Dawley male, blood | intravenous, 1 mg/kg | – | CLint,u | 91.2 mL/min/kg
C[C@H]1CN(C(=O)CC#N)[C@]12CCN(c1ncnc3[nH]ccc13)C2 | – | – | human | oral, dose not given | – | participants with serious TEAEs | 0%
C[C@H]1CO[C@@H]2Cn3cc(C(=O)NCc4ccc(F)cc4F)c(=O)c(O)c3C(=O)N12 | – | – | human patients, all-treated set | intramuscular, dose not given, long-acting injection with rilpivirine LA, median | – | time to injection-site reaction resolution | 4 days
COc1ccc([C@@H](O)c2cc(-c3ncnc4cc(N5CCOCC5)ccc34)c(F)cc2Cl)nn1 | – | – | locally advanced rectal cancer patients | 250 mg, with: capecitabine and radiotherapy | – | decreased appetite TEAE incidence | 33%
CNC(=O)c1ccc(-c2cnc3ncc(Cc4ccc5ncccc5c4)n3n2)cc1F | – | refers to: Dizziness, all grades | cancer patients | oral, 600 mg twice daily, expansion cohort, any causality | – | patients with adverse event | 8%
N#CCC1CCN(c2nc(Nc3ccc(N4CCC(O)CC4)cc3)c3c(=O)[nH]ncc3n2)CC1 | – | – | human, plasma | oral, 40 mg once daily, day 15 | – | AUC(0-24 h) | 2100 ng·h/mL
Cc1cc(NC2CCN(C(=O)OC3CCN(C(=O)/C=C/CN(C)C)C3)CC2)n2ncc(C(C)C)c2n1 (centres unmarked) | – | – | patients with advanced solid tumours | dose not given, QD arm, grade 3 or higher | – | patients with Asthenia | 0%
Cc1ccc([C@@H]2O[C@H](CO)[C@@H](O)[C@H](O)[C@H]2O)cc1Cc1ccc(-c2ccc(F)cc2)s1 | – | – | Japanese type 2 diabetes patients | 25 mg, day 5, 24 h urine collection | reference: baseline | urinary potassium excretion change | -0.195 mEq
O=C(O)c1cc(O)c(O)c(O)c1 | – | – | rat, plasma | oral, 500 mg/kg extract, extract | – | AUC(0-12 h) | 9780 ± 610 ng·h/mL
CC(=O)N=S(=O)(O)c1ccc(N/C=C2\C(=O)Nc3ccc4ncsc4c32)cc1 | – | – | octanol/buffer, 40 mM buffer | pH 11 | – | logP | 1.01
CCO[C@H]1CCN(Cc2c(OC)cc(C)c3[nH]ccc23)[C@H](c2ccc(C(=O)O)cc2)C1 | – | – | human mild hepatic impairment, plasma | oral, 200 mg single dose, geometric mean | – | unbound Cmax | 905 ng/mL
CN1CCc2ccc(/C=C/c3ccc4cc(C(=N)N)ccc4c3)cc2C1C1CCCCC1 (centres unmarked) | – | – | octanol/buffer | pH 11, urokinase ligand set | – | logP | > 4.5
CCN1CCN(Cc2ccc(NC(=O)c3ccc(C)c(NC(=O)c4cncc(-c5cccs5)c4)c3)cc2C(F)(F)F)CC1 | – | LC-MS/MS | C57BL/6 mouse, plasma | intraperitoneal, 30 mg/kg single dose, 6 h | – | mean plasma concentration | 171 ng/mL
CCn1cc(C(=O)N2CCOCC2)c(=O)c2cc(NC3Cc4ccccc4C3)cnc21 | – | – | human overall, fed, plasma | oral, 900 mg twice daily, day 7, tablet, arithmetic mean | – | half-life | 5.6 h
Cc1ccc(Sc2ccccc2N2CCNCC2)c(C)c1 | – | refers to: Somnolence | healthy adult men | oral, 5 mg single dose, 10 day | – | participants with TEAE | 0%
C=CC(=O)Nc1cc(Nc2nccc(-c3cn(C)c4ccccc34)n2)c(OC)cc1N(C)CCN(C)C | – | storage stability | human dried blood spot | 2 h, -80 °C, HQC level | – | recovery | 105%
COc1ccc(OCC(=O)Nc2cc(-c3nn4c(C)nnc4s3)ccc2C)cc1 | – | – | octanol/buffer | pH 11, known kinase inactives set | – | logP | 2.71
CC1(C)CCC(CN2CCN(c3ccc(C(=O)NS(=O)(=O)c4ccc(NCC5CCOCC5)c([N+](=O)[O-])c4)c(Oc4cnc5[nH]ccc5c4)c3)CC2)=C(c2ccc(Cl)cc2)C1 | – | UPLC-MS/MS | patients on VA-based chemotherapy | oral, dose not given, 6 h, with: triazole antifungals | – | dose-normalised C6 (C6/D) | 0.368 ± 0.215
Cc1c(-c2ccc(N3CCc4cccc(C(=O)Nc5nc6ccccc6s5)c4C3)nc2C(=O)O)cnn1CC12CC3(C)CC(C)(C1)CC(OCCNCC[C@H](O)CO)(C3)C2 | – | – | beagle dog, anaesthetised | intravenous infusion, 0.1 mg/kg/min, 180 min | reference: baseline | mean arterial pressure change | -14 mmHg
CNCc1ccc(-c2[nH]c3cc(F)cc4c3c2CCNC4=O)cc1 | – | – | human patients | oral, dose not given, all grades, all doses | – | incidence of malignant neoplasm progression | 16.1%
CN1CCc2ccc(C3CC3c3ccc4cc(C(=N)N)ccc4c3)cc2C1C1CCC1 (centres unmarked) | – | – | octanol/buffer | pH 11, urokinase ligand set | – | logP | > 4.5
CNC(=O)n1ccc2cc(Oc3ccnc(NC(=O)c4ccc(C5CCN(CCO)CC5)cc4)c3)c(OCCOC)cc21 | – | – | healthy human, plasma | oral, 35 mg, high-fat meal | – | AUC(0-72 h) | 92.8 ng·h/mL
CC(C)c1nc(N(C)S(C)(=O)=O)nc(-c2ccc(F)cc2)c1/C=C/[C@@H](O)C[C@@H](O)CC(=O)O | – | – | human, plasma | oral, 20 mg, day 2, geometric mean, alone | – | Vd/F | 8700 L

SMILES | target or system | test | test system | conditions | scale | measurement | value
Cn1cnc2c(F)c(Nc3ccc(Br)cc3Cl)c(C(=O)NOCCO)cc21 | – | population PK model | human, plasma | oral, sequential zero-first-order absorption, fasted | – | zero-order absorption duration | 0.37 h
O=C1CC[C@H](N2Cc3cc(N4CCN(CC5CCN(c6ccc([C@@H]7c8ccc(O)cc8CC[C@@H]7c7ccccc7)cc6)CC5)CC4)ccc3C2=O)C(=O)N1 | – | – | cryopreserved human hepatocytes | 1 µM | – | scaled intrinsic clearance | 46.5 mL/min/kg
O=C(Nc1nc2cccc(-c3ccc(CN4CCS(=O)(=O)CC4)cc3)n2n1)C1CC1 | – | refers to: pain in extremity | human rheumatoid arthritis patients | oral, 75 mg once daily, 4 weeks, regardless of relatedness | – | treatment-emergent adverse events | 0%
COc1ccc(NC(=O)c2ccco2)cc1NC(=O)c1cccnc1 | – | – | octanol/buffer | pH 11, known kinase inactives set | – | logP | 1.53
O=C(O)CCC(=O)O.[2H]C([2H])([2H])Oc1cc(C)c2[nH]ccc2c1CN1CC[C@@H](C2CC2)C[C@H]1c1ccc(C(=O)O)cc1 | – | – | healthy Chinese subjects | 600 mg, single ascending dose | – | TEAE proteinuria | 0%
C/C(=N\c1ccc(O)cc1)c1cc2ccccc2n1C | – | – | rat plasma | 1000 ng/mL, 4 h, room temperature | reference: nominal concentration | remaining compound | 82.8 ± 6.3%
C[C@@H](N)C1CCN(S(=O)(=O)c2cccc3cnccc23)CC1 | – | refers to: Rash | healthy volunteers | 75 mg, fasted | – | TEAE incidence | 0%
CC(C)(C(=O)N1CCOc2c(C#N)cncc2C1)C(F)F | – | refers to: general and administration site disorders | human, both sexes | oral, 15 mg twice daily, 14 days, multiple ascending dose | – | subjects with TEAE | 12.5%
CC(C(=O)NCC(=O)NCC(CNC(=O)CNC(=O)C(C)N1CCN(CC(=O)[O-])CCN(CC(=O)[O-])CCN(CC(=O)[O-])CC1)(CNC(=O)CNC(=O)C(C)N1CCN(CC(=O)[O-])CCN(CC(=O)[O-])CCN(CC(=O)[O-])CC1)CNC(=O)CNC(=O)C(C)N1CCN(CC(=O)[O-])CCN(CC(=O)[O-])CCN(CC(=O)[O-])CC1)N1CCN(CC(=O)[O-])CCN(CC(=O)[O-])CCN(CC(=O)[O-])CC1.[Gd+3].[Gd+3].[Gd+3].[Gd+3] (centres unmarked) | – | – | cynomolgus monkey, kidney medulla | dose not given, day 5 | – | lanthanide concentration | 16 ± 4.2 nmol/g
COc1ncc(-c2nc3c(n2C(C)C)[C@H](c2ccc(Cl)cc2)N(c2cc(Cl)cn(C)c2=O)C3=O)c(OC)n1 | – | – | human patients, plasma | oral, 400 mg, 0-24 h, high-dose arm, cycle 2 day 1 | – | AUC(0-t) geometric mean | 48100 ng·h/mL
CC(C)c1nc(CN(C)C(=O)N[C@@H](CCN2CCOCC2)C(=O)N[C@H](CC[C@H](Cc2ccccc2)NC(=O)OCc2cncs2)Cc2ccccc2)cs1 | – | – | female mouse, plasma | oral, 30 mg/kg | – | total AUC | 13.2 µM·h
Cn1cnc2[nH]c(=O)[nH]c(=O)c21 | – | – | human, cerebrospinal fluid | dose not given, mean | – | CSF concentration | not detected
CO[C@H]1C[C@@H]2CC[C@@H](C)[C@@](O)(O2)C(=O)C(=O)N2CCCC[C@H]2C(=O)O[C@H]([C@H](C)C[C@@H]2CC[C@@H](O)[C@H](OC)C2)CC(=O)[C@H](C)/C=C(\C)[C@@H](O)[C@@H](OC)C(=O)[C@H](C)C[C@H](C)/C=C/C=C/C=C/1C | – | – | healthy adult horses | intravenous, 0.06 mg/kg, 48 h | – | rectal temperature | 37.1 ± 0.4 °C
O=C(COc1ccc(Cl)cc1)NC12CC(c3nnc([C@H]4C[C@@H](OC(F)(F)F)C4)o3)(C1)C2 | – | refers to: Epistaxis | healthy humans, both sexes | oral, dose not given, single ascending dose, fasted | reference: subjects | treatment-emergent adverse events | 5.6%
Cn1cc(-c2ccc(-c3cncc(Cl)c3N3CCC4(CCNC4=O)CC3)cc2)cn1 | COLO 205 | gene expression, microarray, refers to: EFNA3 mRNA | – | concentration not given, 6 h | reference: untreated cells | log2 fold change | 1.24
Cc1cc(NC(=O)c2cccc(NC(=O)/C=C/CN(C)C)c2)ccc1Nc1nccc(-c2cccnc2)n1 | – | – | Wistar rat, male, plasma | 1 µM, 120 min | – | compound remaining | 79.4%
CC(C)n1c(Nc2cccnc2)nc2cnc(Nc3ccc(N4CCN(C)CC4)cc3)nc21 | – | refers to: aspartate aminotransferase increased | healthy male subjects | oral, 150 mg, study, with: rifampin | – | subjects with adverse event | 0%
OC[C@H]1OC(O)[C@H](O)[C@@H](O)[C@@H]1O (some centres unmarked) | – | – | aqueous solution | 15 mM, with: glucosamine | – | osmolality | 12 mOsmol/kg
CCOc1c([C@H](C)n2nc(C)c3c(N)ncnc32)cc(Cl)c(F)c1[C@@H]1CNC(=O)C1 | – | refers to: QTcF change ≤30 ms | previously treated B-cell malignancy | oral, 20 mg once daily, baseline QTcF ≤450 ms | reference: baseline | ECG observations | 95.8%
CCn1c(SCC(=O)Nc2ccccc2OC)nnc1-c1ccco1 | – | – | octanol/buffer | pH 11 | – | logP | 2.44
CC(=O)c1ccc([C@H]2C[C@@]3(C)[C@@H](CC[C@@]3(O)C(F)(F)C(F)(F)F)[C@@H]3CCC4=CC(=O)CCC4=C32)cc1 | – | – | human, pooled serum | oral, 200 mg, day 1, 4 h | – | serum concentration | 12.4 ng/mL
FC(F)(F)c1ccc(CNc2ccc(Cc3c[nH]c4ncc(Cl)cc34)cn2)cn1 | – | refers to: Diarrhoea | patients with advanced solid tumours | oral, dose not given, all grades, possibly related to drug | – | adverse event incidence | 30%
COc1ccnc(C[S+]([O-])c2nc3ccc(OC(F)F)cc3[nH]2)c1OC (centres unmarked) | – | – | human, plasma | intravenous, dose not given, median | – | dose-normalised AUC | 9 µg·h/mL per mg/kg

A few entries again:
SMILES | target or system | test | test system | conditions | scale | measurement | value
C[C@H]1CO[C@@H]2Cn3cc(C(=O)NCc4ccc(F)cc4F)c(=O)c(O)c3C(=O)N12 | – | – | human patients, all-treated set | intramuscular, dose not given, long-acting injection with rilpivirine LA, median | – | time to injection-site reaction resolution | 4 days
Cc1cc(NC(=O)c2cccc(NC(=O)/C=C/CN(C)C)c2)ccc1Nc1nccc(-c2cccnc2)n1 | – | – | Wistar rat, male, plasma | 1 µM, 120 min | – | compound remaining | 79.4%
CCO[C@H]1CCN(Cc2c(OC)cc(C)c3[nH]ccc23)[C@H](c2ccc(C(=O)O)cc2)C1 | – | – | human mild hepatic impairment, plasma | oral, 200 mg single dose, geometric mean | – | unbound Cmax | 905 ng/mL
COc1ncc(-c2nc3c(n2C(C)C)[C@H](c2ccc(Cl)cc2)N(c2cc(Cl)cn(C)c2=O)C3=O)c(OC)n1 | – | – | human patients, plasma | oral, 400 mg, 0-24 h, high-dose arm, cycle 2 day 1 | – | AUC(0-t) geometric mean | 48100 ng·h/mL
CC(=O)N=S(=O)(O)c1ccc(N/C=C2\C(=O)Nc3ccc4ncsc4c32)cc1 | – | – | octanol/buffer, 40 mM buffer | pH 11 | – | logP | 1.01
